{"data": "Measurements pooled from the literature", "note": "Each line is one published result; not all experiments were run side by side. Numbers after ± are the reported error."}
{"SMILES": "Cc1ncc2n1-c1ccc(Cl)cc1C(c1ccccc1F)=NC2", "system": "human", "setting": "oral, dose not given, together with: omaveloxolone", "how to read": "reference: substrate alone", "quantity": "Cmax decrease", "value": "34%"}
{"SMILES": "CNC(=O)n1ccc2cc(Oc3ccnc(NC(=O)c4ccc(C5CCN(CCO)CC5)cc4)c3)c(OCCOC)cc21", "system": "healthy human, plasma", "setting": "oral, 35 mg, together with: high-fat meal", "how to read": "reference: fasted", "quantity": "Cmax reduction", "value": "33%"}
{"SMILES": "CC(=O)c1c(C)c2cnc(Nc3ccc(C4CCN(CCS(C)(=O)=O)CC4)cn3)nc2n(C2CCCC2)c1=O", "system": "human, dose-escalation trial, plasma", "setting": "oral, 100 mg twice daily, day 1, single dose", "quantity": "Cmax", "value": "172 ng/mL"}
{"SMILES": "Cc1ncc2n1-c1ccc(Cl)cc1C(c1ccccc1F)=NC2", "system": "human, plasma", "setting": "oral, single dose, together with: dose, single, rimegepant 300 mg", "how to read": "reference: with over without rimegepant", "quantity": "Cmax ratio", "value": "138%"}
{"SMILES": "N[C@@H](Cc1ccc(O)c(O)c1)C(=O)O", "system": "human, plasma", "setting": "oral, carbidopa/levodopa every 4 h, together with: opicapone", "how to read": "reference: after over before opicapone", "quantity": "Cmax ratio", "value": 1.43}
{"SMILES": "O[C@H]1CCCN[C@@H]1CCCn1cnc2c(Cl)c(Cl)ccc21", "system": "healthy humans, plasma", "setting": "oral, 150 mg single dose", "quantity": "Cmax", "value": "238 ng/mL"}
{"SMILES": "OCc1ncc2n1-c1ccc(Cl)cc1C(c1ccccc1F)=NC2", "system": "human, plasma", "setting": "oral, 7.5 mg of midazolam, day 19, geometric mean, no amenamevir", "quantity": "Cmax", "value": "14.9 ng/mL"}
{"SMILES": "Cn1nc(NS(C)(=O)=O)c2c(Cl)ccc(-n3c([C@H](Cc4cc(F)cc(F)c4)NC(=O)Cn4nc(C(F)F)c5c4C(F)(F)[C@@H]4C[C@H]54)nc4nc(OCCC(F)(F)F)ccc4c3=O)c21", "system": "human", "setting": "oral, dose not given, single dose", "how to read": "reference: tablet over powder in bottle", "quantity": "Cmax geometric mean ratio", "value": 0.37}
{"SMILES": "NCCCC[C@@H]1NC(=O)[C@@H](Cc2c[nH]c3ccccc23)NC(=O)[C@H](c2ccccc2)NC(=O)[C@@H]2C[C@@H](OC(=O)NCCN)CN2C(=O)[C@H](Cc2ccccc2)NC(=O)[C@H](Cc2ccc(OCc3ccccc3)cc2)NC1=O", "assay": "radioimmunoassay", "system": "human, plasma", "setting": "subcutaneous, 600 µg twice daily, day 5", "quantity": "Cmax at steady state", "value": "24.3 ± 7.2 ng/mL"}
{"SMILES": "COc1ccc2c(c1)[C@]13CCCC[C@@H]1[C@H](C2)N(C)CC3", "system": "human female", "setting": "dose not given, day 22", "how to read": "reference: day 0", "quantity": "Cmax change", "value": "8.95%"}
{"SMILES": "N.N.O=C([O-])C1(C(=O)[O-])CCC1.[Pt+2]", "assay": "refers to: unbound platinum", "system": "human, plasma ultrafiltrate", "setting": "intravenous, AUC 2, median, dose level -4", "quantity": "Cmax", "value": "11300 ng/mL"}
{"note": "Some of these lines once more:"}
{"SMILES": "Cc1ncc2n1-c1ccc(Cl)cc1C(c1ccccc1F)=NC2", "system": "human", "setting": "oral, dose not given, together with: omaveloxolone", "how to read": "reference: substrate alone", "quantity": "Cmax decrease", "value": "34%"}
